Measurements from different studies.
Every numbered part comes from another study and shows a few of its results, in no order. Values joined by “and” are separate records of one study, mostly repeats; a detail may differ. Changes are numbered by the printed parent chain.
UniProt P41145, sequence (whole entry, looked up): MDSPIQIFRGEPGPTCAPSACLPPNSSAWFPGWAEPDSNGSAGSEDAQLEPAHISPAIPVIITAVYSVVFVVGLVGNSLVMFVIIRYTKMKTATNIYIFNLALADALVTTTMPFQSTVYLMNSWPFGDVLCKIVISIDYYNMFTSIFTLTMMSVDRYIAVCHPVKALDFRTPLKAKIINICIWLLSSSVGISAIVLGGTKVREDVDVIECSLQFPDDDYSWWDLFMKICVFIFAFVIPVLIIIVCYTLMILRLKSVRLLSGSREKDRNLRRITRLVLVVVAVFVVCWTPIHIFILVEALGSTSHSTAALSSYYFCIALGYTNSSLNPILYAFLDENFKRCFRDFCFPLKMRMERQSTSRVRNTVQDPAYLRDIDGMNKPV
UniProt P28223, sequence (whole entry, looked up): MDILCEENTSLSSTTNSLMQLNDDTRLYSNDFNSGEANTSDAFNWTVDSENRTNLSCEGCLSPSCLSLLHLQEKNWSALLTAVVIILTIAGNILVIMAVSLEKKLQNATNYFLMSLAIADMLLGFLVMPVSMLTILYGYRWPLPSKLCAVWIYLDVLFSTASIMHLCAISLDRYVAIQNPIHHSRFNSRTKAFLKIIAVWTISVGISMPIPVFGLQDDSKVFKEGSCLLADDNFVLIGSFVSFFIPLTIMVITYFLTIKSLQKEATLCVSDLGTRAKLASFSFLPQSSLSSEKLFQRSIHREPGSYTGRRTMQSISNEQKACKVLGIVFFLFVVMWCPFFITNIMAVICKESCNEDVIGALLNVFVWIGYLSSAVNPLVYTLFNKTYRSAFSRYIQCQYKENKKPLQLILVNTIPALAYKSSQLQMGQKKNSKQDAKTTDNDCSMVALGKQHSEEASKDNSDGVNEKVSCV
UniProt P11229, sequence (whole entry, looked up): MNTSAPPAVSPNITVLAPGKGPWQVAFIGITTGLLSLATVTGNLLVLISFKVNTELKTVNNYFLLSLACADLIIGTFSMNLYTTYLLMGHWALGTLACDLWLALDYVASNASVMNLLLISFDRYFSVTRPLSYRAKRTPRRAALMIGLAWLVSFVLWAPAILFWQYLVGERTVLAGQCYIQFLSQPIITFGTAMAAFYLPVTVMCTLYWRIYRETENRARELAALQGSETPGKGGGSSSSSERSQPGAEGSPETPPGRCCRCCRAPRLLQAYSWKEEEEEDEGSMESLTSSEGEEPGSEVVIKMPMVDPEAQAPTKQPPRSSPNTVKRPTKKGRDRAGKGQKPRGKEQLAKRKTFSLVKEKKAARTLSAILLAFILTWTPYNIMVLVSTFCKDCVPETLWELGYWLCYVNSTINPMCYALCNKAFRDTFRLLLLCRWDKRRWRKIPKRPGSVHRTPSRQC
UniProt P20309, sequence (whole entry, looked up): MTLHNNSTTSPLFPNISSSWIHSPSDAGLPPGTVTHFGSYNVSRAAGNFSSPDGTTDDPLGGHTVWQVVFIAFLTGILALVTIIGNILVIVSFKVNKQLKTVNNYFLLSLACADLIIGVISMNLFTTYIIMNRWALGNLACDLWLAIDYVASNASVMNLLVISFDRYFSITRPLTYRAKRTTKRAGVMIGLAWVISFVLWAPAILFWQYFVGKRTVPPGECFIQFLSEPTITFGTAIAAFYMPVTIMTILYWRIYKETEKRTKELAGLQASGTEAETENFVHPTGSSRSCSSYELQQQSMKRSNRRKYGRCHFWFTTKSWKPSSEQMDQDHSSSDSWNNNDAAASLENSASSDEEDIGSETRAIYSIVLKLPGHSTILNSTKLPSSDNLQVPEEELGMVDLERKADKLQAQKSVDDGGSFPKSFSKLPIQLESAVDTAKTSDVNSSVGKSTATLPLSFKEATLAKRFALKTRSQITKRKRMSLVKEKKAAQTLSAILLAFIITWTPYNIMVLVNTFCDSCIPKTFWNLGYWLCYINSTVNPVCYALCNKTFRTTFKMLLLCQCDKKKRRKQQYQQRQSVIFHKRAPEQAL
UniProt P35372, sequence (whole entry, looked up): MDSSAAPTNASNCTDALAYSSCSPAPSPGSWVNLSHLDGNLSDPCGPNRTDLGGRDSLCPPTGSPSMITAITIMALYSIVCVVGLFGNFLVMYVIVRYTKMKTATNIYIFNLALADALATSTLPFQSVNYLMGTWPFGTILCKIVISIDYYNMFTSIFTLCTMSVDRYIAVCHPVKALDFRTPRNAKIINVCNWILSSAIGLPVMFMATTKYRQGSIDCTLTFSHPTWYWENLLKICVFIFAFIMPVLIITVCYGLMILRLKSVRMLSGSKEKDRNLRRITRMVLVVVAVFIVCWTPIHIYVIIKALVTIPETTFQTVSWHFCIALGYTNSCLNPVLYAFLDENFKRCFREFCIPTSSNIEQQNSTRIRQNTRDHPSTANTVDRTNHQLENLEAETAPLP
UniProt P41143, sequence (whole entry, looked up): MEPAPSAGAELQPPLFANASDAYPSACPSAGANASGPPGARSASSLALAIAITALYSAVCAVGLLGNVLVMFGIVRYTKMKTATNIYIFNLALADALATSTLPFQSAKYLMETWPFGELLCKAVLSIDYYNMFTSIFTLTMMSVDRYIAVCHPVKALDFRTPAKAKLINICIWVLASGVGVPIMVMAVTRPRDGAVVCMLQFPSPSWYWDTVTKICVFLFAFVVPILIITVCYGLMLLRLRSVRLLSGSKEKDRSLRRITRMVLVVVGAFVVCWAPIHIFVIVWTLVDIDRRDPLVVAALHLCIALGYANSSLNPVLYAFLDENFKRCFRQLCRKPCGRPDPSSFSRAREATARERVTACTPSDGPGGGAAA

Block 1
SMILES: CN(c1ccnc(CNc2nc(Nc3ccc4c(c3)CC(=O)N4)ncc2C(F)(F)F)n1)S(C)(=O)=O
Observed: cell-free assay
Concentration: 10 µM
target | inhibition
DRD5 (Homo sapiens, UniProt P21918) | -0.97%
CHRM3 (Homo sapiens, UniProt P20309) | -4.64%
OPRD1 (Homo sapiens, UniProt P41143) | -6.88%
OPRM1 (Homo sapiens, UniProt P35372) | 0.77%
CHRM1 (Homo sapiens, UniProt P11229) | -6.58%
OPRK1 (Homo sapiens, UniProt P41145) | -31.1%
HTR2A (Homo sapiens, UniProt P28223) | 4.75%

Block 2
Target: CCNB2, cyclin fold, Cln2 fusion (human)
Method: yeast growth competition, sequencing
Sample: yeast
Notes: weak parent motif
Relative to: not given
Direction: higher = stronger binding
Starting sequence: viral docking peptide; KGVKRKLFAEDSS; partner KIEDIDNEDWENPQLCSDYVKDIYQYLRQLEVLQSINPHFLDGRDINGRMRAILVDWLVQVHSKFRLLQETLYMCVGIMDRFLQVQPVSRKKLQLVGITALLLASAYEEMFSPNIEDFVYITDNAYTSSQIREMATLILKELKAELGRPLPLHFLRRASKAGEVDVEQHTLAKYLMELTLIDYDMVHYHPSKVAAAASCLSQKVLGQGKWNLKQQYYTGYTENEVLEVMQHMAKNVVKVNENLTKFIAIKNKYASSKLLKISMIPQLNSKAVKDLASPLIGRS
Substitution | normalised enrichment score
KGVKRKLFAADSS [E10A] | 0.893
KRVKRKLFAEDSS [G2R] | 0.966
KGVKRKLYAEDSS [F8Y] | 0.0559
KGVKRKLFAEGSS [D11G] | 0.904
KGVKRKLRAEDSS [F8R] | 0.268
KGVKRKLFEEDSS [A9E] | 1.3
KFVKRKLFAEDSS [G2F] | 0.597
KGVKRKLFAEMSS [D11M] | 0.296

Block 3
Target: HLA class I histocompatibility antigen, C alpha chain, allele C*04:01 (Homo sapiens, UniProt P10321)
Observed: peptide-MHC binding
Molecule type: peptide
Concentration: concentration not given
Molecule | binding
HASHYTIPW | inactive
VMAPRTLIL | inactive
VMAPRTLVL | inactive
KIFKVTGEF | inactive
KITDFGIAK | inactive
RIRAANLPI | inactive
KAIGTVLV | inactive
SMNYPNSYK | inactive

Further values, each from its own experiment
SMILES | cell line | assay | conditions | quantity | value
CC(C)S(=O)(=O)c1cc2c(Nc3ccc4sc(C5CCCC5)nc4c3)ccnc2cc1OCCO | L929 RIPK3-/- reexpressing RIPK3 K51A | CCK-8 | 12.5 µM, together with: zVAD | survival | 59.3% and 58.9% and 71.8% and 64% and 64.7%
